Assay results gathered from unrelated publications.
Each line is one published result; not all experiments were run side by side.
Effect on: cell growth or viability

SMILES	cell line	assay	setting	CC50 [µM]
O[C@H](CNCCCC(F)(F)F)c1cc(Cl)cc2c1-c1ccc(Cl)cc1C2	HepG2	MTT	72 h	6.9
Cc1ccc(C(C)(C)c2ccc(NC(=O)CN(C)c3ccccc3N3CCCC3=O)cc2)cc1	HepG2	ATP luminescence	48 h	> 40
CC1CS(=O)(=O)CCN1/N=C/c1ccc([N+](=O)[O-])o1 (stereo not shown)	THP-1	WST-1	24 h	> 200
COc1cc2c(cc1OC)[C@@H]1C(=O)c3ccc4c(c3O[C@@H]1CO2)C=CC(C)(C)O4	A549	resazurin	72 h	20
O[C@H](CN[C@@H](COCC1CC1)Cc1ccccc1)c1cc(Cl)cc2c1-c1ccc(Cl)cc1C2	HepG2	–	48 h	13.4
Cc1ccc(Oc2ccc(NC(=O)CNc3ccccc3-n3cncn3)cc2)cc1	HepG2	ATP luminescence	48 h	> 40
COc1ccc(S(=O)(=O)ON=C2C=C(C)C(=O)C(C)=C2)cc1	DU-145	–	–	3.75
COC1=CC2=[N+](C)CCc3c[nH]c(c32)C1=O	HCT-116	MTT	72 h	10
CCCN(c1ccc(C)cc1)c1ccc(NC(=O)CN(C)c2ccccc2N2CCCC2=O)cc1	HepG2	ATP luminescence	48 h	27
O=C1C=C2NCCc3c[nH]c(c32)C1=O	HCT-116	MTT	72 h	50
CN(CC(=O)Nc1ccc(N(C)c2ccc(F)c(F)c2)cc1)c1ccccc1N1CCCC1=O	HepG2	ATP luminescence	48 h	> 40
O=C(Sc1cccccc1=O)c1ccccc1	HepDES19	MTS	72 h	66.7
Cc1ccc(N(C)c2ccc(NC(=O)CN(C)c3ccccc3N3CCCC3=O)cc2F)cc1	HepG2	ATP luminescence	48 h	> 40
O=C1C(NCCc2ccc(O)cc2)=CC2=NCCc3c[nH]c1c32	HCT-116	MTT	72 h	8
CCCCN(CCCC)CC(O)c1cc(Cl)cc2c1-c1ccc(Cl)cc1/C2=C/c1ccc(Cl)cc1 (stereo not shown)	HepG2	MTT	72 h	> 100
Cc1ccc(Oc2ccc(NC(=O)CN(C)c3ccccc3N3CCCC3=O)cc2)cc1	HepG2	ATP luminescence	48 h	> 40
Nc1ccn([C@H]2CC[C@@H](CO)O2)c(=O)n1	MT4	MTT	5 days	> 237
NC1=CC2=NCCc3c[nH]c(c32)C1=O	HCT-116	MTT	72 h	0.19
O=c1[nH]cnc2c1ncn2[C@H]1CC[C@@H](CO)O1	MT4	MTT	5 days	> 212
CCCCNC[C@@H](O)c1cc(Cl)cc2c1-c1ccc(Cl)cc1C2	HepG2	–	48 h	8.7
Cc1ccc(N(c2ccc(NC(=O)CN(C)c3ccccc3N3CCCC3=O)cc2)C(C)C)cc1	HepG2	ATP luminescence	48 h	> 40
Cc1ccnc2c1NC(=O)c1cccnc1N2C1CC1	MT4	MTT	5 days	> 15
O[C@H](CNCCN1CCN(C(c2ccccc2)c2ccccc2)CC1)c1cc(Cl)cc2c1-c1ccc(Cl)cc1C2	HepG2	MTT	72 h	8
Cc1ccc(Oc2ccc(NC(=O)CNc3ccccc3N3CCCC3=O)cc2)cc1	HepG2	ATP luminescence	48 h	14.3
Cc1ncsc1-c1ccc(CNC(=O)[C@@H]2C[C@@H](O)CN2C(=O)[C@@H](NC(=O)COCCOCCn2cc(COc3ccc(-c4nc5cc(-c6ccccc6)ccn5c4Nc4ccc(C(=O)O)cc4)cc3)nn2)C(C)(C)C)cc1	HCT-116	–	72 h	152
